Results collected from several papers.
Parts stem from different laboratories: compare values within a part only.

Series 1
Target: Histone acetyltransferase KAT6A, both winged helices, GST fusion (KAT6A, Homo sapiens, UniProt Q92794, residues 1-181)
Technique: protein binding microarray
Form: double-stranded DNA, one strand shown
Matrix: in vitro
Concentration: not given
Setting: 8-mer, flanks averaged, mean of 2 arrays, mostly near background
Baseline: not given
Direction: higher = stronger binding
Target sequence (chain): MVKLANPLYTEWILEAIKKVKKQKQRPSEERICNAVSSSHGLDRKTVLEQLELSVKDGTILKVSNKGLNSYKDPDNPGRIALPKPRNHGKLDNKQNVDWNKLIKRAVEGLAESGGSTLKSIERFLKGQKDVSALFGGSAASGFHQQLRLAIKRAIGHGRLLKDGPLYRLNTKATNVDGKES
Oligonucleotide	E-score
AACCCTCA	-0.126
GAGAGCCC	-0.129
CGTAGAAC	-0.0578
CGAGGTTA	0.016
CCGGCAAA	0.18
ATACCAGG	-0.129
AAGGGCGG	0.16
AAATGACG	0.126
GCCACTTA	-0.0601
ACCAATGA	-0.218
AGTAGAAT	-0.164
GGAATTCC	-0.0243
GGAGGCCC	0.00173
CTAAAGAG	-0.231
ATGGGACG	-0.084
ACTAAAGA	-0.189
AACTCATA	-0.146
ACATTCCA	-0.0411
CCGCAACG	0.279
GTAGCCAA	-0.108
CCGATAAG	0.0561
ATATGCCG	0.257
AGGGCAGC	-0.13
GGGCGGGA	0.302
GAAATACC	-0.0403

Series 2
Target: Sal-like protein 4, full length isoform A (SALL4, Homo sapiens, UniProt Q9UJQ4, residues 1-1053)
Chain of UniProt Q9UJQ4 (whole entry, looked up): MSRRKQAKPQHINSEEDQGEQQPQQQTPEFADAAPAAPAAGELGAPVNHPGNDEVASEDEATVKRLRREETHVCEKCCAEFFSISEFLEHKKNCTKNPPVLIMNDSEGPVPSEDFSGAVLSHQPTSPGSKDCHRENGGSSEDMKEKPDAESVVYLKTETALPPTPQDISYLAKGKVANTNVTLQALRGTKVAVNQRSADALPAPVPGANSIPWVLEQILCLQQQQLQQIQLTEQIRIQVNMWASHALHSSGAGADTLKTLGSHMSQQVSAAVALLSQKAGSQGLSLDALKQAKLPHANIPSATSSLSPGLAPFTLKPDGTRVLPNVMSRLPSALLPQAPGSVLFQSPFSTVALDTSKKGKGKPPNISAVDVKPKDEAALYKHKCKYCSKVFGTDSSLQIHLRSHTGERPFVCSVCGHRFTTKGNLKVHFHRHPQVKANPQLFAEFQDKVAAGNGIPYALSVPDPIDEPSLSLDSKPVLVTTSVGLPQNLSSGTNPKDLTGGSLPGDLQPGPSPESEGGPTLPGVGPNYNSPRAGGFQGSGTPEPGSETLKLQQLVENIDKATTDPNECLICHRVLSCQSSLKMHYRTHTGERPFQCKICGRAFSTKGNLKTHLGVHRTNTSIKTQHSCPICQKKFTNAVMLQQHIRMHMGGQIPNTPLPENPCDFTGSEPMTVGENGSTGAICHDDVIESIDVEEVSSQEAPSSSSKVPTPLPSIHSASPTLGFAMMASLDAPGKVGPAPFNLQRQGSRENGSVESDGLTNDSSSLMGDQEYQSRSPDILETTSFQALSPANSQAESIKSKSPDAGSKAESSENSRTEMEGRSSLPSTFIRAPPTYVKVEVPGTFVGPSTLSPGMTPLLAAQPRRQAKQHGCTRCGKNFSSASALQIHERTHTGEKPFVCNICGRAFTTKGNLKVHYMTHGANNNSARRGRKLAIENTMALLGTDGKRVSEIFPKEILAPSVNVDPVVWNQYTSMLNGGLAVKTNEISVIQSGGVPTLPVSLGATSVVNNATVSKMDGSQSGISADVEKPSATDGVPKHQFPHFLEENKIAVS
Technique: universal PBM
Form: double-stranded DNA, one strand shown
Matrix: in vitro
Concentration: 600 nM
Setting: 8-mer, flanks averaged, mean of replicates
Direction: higher = stronger binding
Oligonucleotide	E-score
AGTCCATA	0.104
AACTGGGT	-0.125
GTAGACCA	-0.127
GTCGGAAA	0.0647
ACATGCGG	-0.161
AACACGTA	0.227
CCTAGAAG	-0.0793
ACATGTAC	0.0553
AGCTTCAG	-0.111
GTGGATAA	0.167
TAAACGAA	0.179
AGCCTTCC	-0.147
AGATATCT	0.212
AAAGCAAC	0.016
ACATCTGA	0.0578
CTCGTGAC	-0.0636
CGAGGCTC	-0.253
AGCCACTC	-0.1
AATTCCTG	0.0218
CGGTGAAC	-0.0935
CATACCCC	-0.0437
ATAAGTGG	0.25
ACACCCAA	-0.101
ATAACTAC	0.36
ACCCGATA	-0.0447

Series 3
Target: RNA binding protein fox-1 homolog 2, RRM domain, GST-SBP tag (RBFOX2, Homo sapiens, UniProt O43251-10, residues 100-194)
Technique: RNA Bind-n-Seq
Form: RNA
Matrix: in vitro
Concentration: 365 nM
Setting: natural RNA segment, single round, ends assumed
Baseline: no-protein control
Direction: higher = stronger binding
Residues (chain): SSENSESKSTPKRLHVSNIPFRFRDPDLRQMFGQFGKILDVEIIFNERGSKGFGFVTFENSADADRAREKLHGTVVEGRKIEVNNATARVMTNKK
Oligonucleotide	RBNS enrichment (R)
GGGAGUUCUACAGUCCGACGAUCCAUUAGACCCGUGUGCGCUGCUAAGGCCAUGGUAACCCUCUGGGGACAGGCAGCCAUUGAUGGGAGCAAAGCUUGCAGGUGCCUGGAGGUGGUCCCACCAUUGCCUGCAGUGGAAUUCUCGGGUGCCAA	1.77
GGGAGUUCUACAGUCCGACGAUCUGGGGAAGUCUCAUGUAACUCAGAACACUAUCCUGGUCCCAGGCUACACUGUGCACUACGUCUUUAGGGUUGUUUAUUUCACUGCGGGUCAUUUUCUGAUUCUUGUUGUUUGGAAUUCUCGGGUGCCAA	0.331
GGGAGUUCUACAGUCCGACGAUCUCACUGCAGAAGCAACUCCUGCACUCGCCCAGACUUUACCAGGGGGCAAAGAUGCCCAUGACGACAUAGUCACCAGUGAAGUGGAUUUUACCUCAGAAGCAGUGACAGCCUGGAAUUCUCGGGUGCCAA	0.208
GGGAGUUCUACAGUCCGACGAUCCUUGGUGAGGAUGGGUUUCAAACAGCACACUCCUCCCGGUGGAGGAAGAUUAACAACAGUCUCUCCCCCAGAACCUCAUUAUUUAUUUAUUUGGCAUUCCAGAAAGGAUUUGGAAUUCUCGGGUGCCAA	0.64
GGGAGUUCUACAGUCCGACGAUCCCUUCUGGCCAAUUUAAGGAGAAGCAUUGAGGGGCCCUGAAAGGAGUCACUUCCAGUCCUCCUCAGAGGAUGUGAUGGUGGUAGGAGAGCCAACUCUGAUGGGAGGUGAGUGGAAUUCUCGGGUGCCAA	0.511
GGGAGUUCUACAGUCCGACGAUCUCUCUUCAAAAGAAGAGAGAUUCCAAGCAACCCAUCUUUCUUCAGUAUGUAUGUUCUGUACAUACUUAUCGGAGCGCGCCAGUAAGUAUCAGGCAUAUAUAUCUGUCUGUUGGAAUUCUCGGGUGCCAA	0.217
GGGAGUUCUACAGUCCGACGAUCUAACAAUAGCUUUAUGUCUUUGUGAAAAUGAAAUUUACUUUUAGUUUCAUAUUAUAUUUAAAGACAUGGAAUUUGUCUAGUUCAGUAUCUAUCUAUCUAUCUAUCUAUCUUGGAAUUCUCGGGUGCCAA	0.654
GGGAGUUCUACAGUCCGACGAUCAAAUAUCUGUAUUAUACUCUAAGCUAUUACAAUGGUACUUAAAAUAAUGUAAAUUUGAAGUCAUUGUUAUAAAGUAAUAAAAGUGGAAAUUACUUAAGUAUUUAAAUUAUUGGAAUUCUCGGGUGCCAA	0.893

Series 4
Target: Centromere-binding protein 1, full length, N-terminal tag (CBF1, Saccharomyces cerevisiae, UniProt P17106, residues 1-351)
Chain of UniProt P17106 (whole entry, looked up): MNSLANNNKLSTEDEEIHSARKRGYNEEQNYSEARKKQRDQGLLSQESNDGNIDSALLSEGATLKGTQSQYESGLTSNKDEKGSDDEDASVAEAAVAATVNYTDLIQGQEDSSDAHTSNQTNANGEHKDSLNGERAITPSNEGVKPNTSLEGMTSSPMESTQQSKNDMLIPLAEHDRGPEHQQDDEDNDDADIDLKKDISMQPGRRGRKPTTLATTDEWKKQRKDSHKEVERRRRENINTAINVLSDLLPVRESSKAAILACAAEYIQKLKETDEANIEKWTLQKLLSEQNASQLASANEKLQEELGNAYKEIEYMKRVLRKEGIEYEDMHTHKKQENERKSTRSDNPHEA
Technique: protein-binding microarray
Form: double-stranded DNA, one strand shown
Matrix: in vitro
Concentration: 0.8 µM
Setting: whole 60-bp probe, no competitor
Direction: higher = stronger binding
Oligonucleotide	fluorescence intensity [a.u.]
CCTAACTACTATATTACCGTGTCATAGCTTCGTACAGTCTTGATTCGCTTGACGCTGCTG	551
CTAGAACGGCCCGCAATCGTGACCCGGCCAAAGTTCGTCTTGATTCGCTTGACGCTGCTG	655
CTACTTACTCGGTATCACATGGAAAAGACCCCCTTCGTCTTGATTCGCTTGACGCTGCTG	1090
GAATTCCTGTTTTTTGACGTGATATACTCAAAGTAGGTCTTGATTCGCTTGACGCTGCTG	602
GAATGTGTATGTAAGCACGAGCACTAGTTCAATTAGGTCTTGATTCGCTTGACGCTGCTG	649
CTAATTACGTATTTTCTGATGTTGAGGAATCTGTTCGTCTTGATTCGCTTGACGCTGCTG	562
GAACGTATGACAAAGAGCACCACGATGGTGATCTAGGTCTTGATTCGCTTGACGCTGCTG	524
CTAACGAGCCTTCATCACGTGCATTAAAGAAATTTCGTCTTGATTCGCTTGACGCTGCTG	10400
TGTACGAAGCTATCAAATATATCTATAGTAGTTAGGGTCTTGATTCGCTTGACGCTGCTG	525
CTACGGAACTGTTCCCACGTTCTCTAGTTAATTTTCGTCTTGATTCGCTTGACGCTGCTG	529
CTAAATTCATTATGTCTGATGAATATGAAAACCTTCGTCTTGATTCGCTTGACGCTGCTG	538
GAAGAAATGAAAAATTACATCAGCGAACTAATGTAGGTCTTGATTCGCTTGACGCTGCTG	489
GAATTAATGTCCTGTCACGGATAGTCAATAATCTAGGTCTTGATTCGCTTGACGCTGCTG	611
GAATTAAGAAGCCGCAAGGTCACCTAAATACCTTAGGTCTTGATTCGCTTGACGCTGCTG	484

Series 5
Target: Prothrombin, mature alpha-thrombin (F2, Homo sapiens, UniProt P00734)
Technique: aptamer microarray, sandwich
Form: DNA with 2'F-ANA
Matrix: in vitro
Concentration: 200 nM
Setting: whole 15-mer aptamer, many near background
With: Cy3 exosite-II aptamer, 400 nM
Direction: higher = stronger binding
Oligonucleotide: GGTTGGTGTGGTTGG
Modification	mean fluorescence intensity [a.u.]
2'F-ANA at 3 8 9 10 12 14	399
2'F-ANA at 2 3 5 8 9 10 11	53.1
2'F-ANA at 1 3 4 5 7 11 14 15	46.8
2'F-ANA at 1 5 9 11 13 14	65.7
2'F-ANA at 2 3 4 5 9 10 11 14 15	47.9
2'F-ANA at 1 2 5 6 7 12 13 14 15	48.3
2'F-ANA at 3 4 6 8 9 12 13 15	576
2'F-ANA at 4 5 9 10 12 14	227
2'F-ANA at 1 5 8 10 13 14	43.4
2'F-ANA at 3 5 6 10 13	55.6
2'F-ANA at 2 3 9 11 14	407
2'F-ANA at 4 7 8 9 15	351
2'F-ANA at 1 2 6 9 10 14	135
2'F-ANA at 1 5 8 11 14 15	46.8
2'F-ANA at 2 3 6 10 14 15	266
2'F-ANA at 1 2 4 5 10 11 15	46.6
2'F-ANA at 1 4 6 7 10 13 15	64.1
2'F-ANA at 2 3 4 8 10 11 12 13 15	216
2'F-ANA at 1 8 9 10 11 12	68.3
2'F-ANA at 1 2 3 4 9 10 14	57.2
